Measured values pooled from the literature.
Parts stem from different laboratories: compare values within a part only.

Sample 1 — method: protein-binding microarray; form: double-stranded DNA, one strand shown; medium: in vitro; tested at: 250 nM; setting: 60-bp whole probe; added: salmon DNA 0.4 mg/ml; reference: random background probes; direction: higher = stronger binding; all sequences stand within: GCCTAGCAC … GTCTTGATTCGCTTGACGCTGCTG
Target: Interferon regulatory factor 5, full length, phosphomimetic (IRF5, Homo sapiens, UniProt Q13568-2, residues 1-514, K96S/S451D/S453D/S456D/S462D)
Sequence	log fluorescence
GACCGTATCGGACTGGGGACGTGCTAG	0.663 z-score
TTAGATATCGTGTTTCGATTAGTGCTA	6.88 z-score
TCAGATCTCAGACTGGATTAGTGCTAG	-0.191 z-score
TTAGATATCAGTTTCGATGAGTGCTAG	9.35 z-score
GAAGGACTGGGACTGGGGACGTGCTAG	-0.572 z-score
CTAATTAGAATTTTCATTAAGTGCTAG	1.15 z-score
TGGGATTTTGTCCTCCCCTCGTGCTAG	-0.429 z-score
TGCCCTCTCCATACTTCCCAGTGCTAG	0.134 z-score
TTATGTTTCGGTATCGGTTAGTGCTAG	10.8 z-score
TCATTTTTCATTTTTTTACTGTGCTAG	2.26 z-score
GTAAACCATCCAAATGTTATGTGCTAG	0.434 z-score
TTAGGACTTGACTTTCGGTTAGTGCTA	9.97 z-score
TTAGATATCAGTTTCGACTAGTGCTAG	8.56 z-score
CAAGGCAAGAAACAAACAACGTGCTAG	0.212 z-score
CACGGTTTCGGGACTGGGGACGTGCTA	4.04 z-score
GGCTGTTTGGCCCTGAACCTGTGCTAG	-0.56 z-score
GACGGACTGCATCTCCTGACGTGCTAG	-0.502 z-score
TTTTGCTTTCATTTATTTACGTGCTAG	8.58 z-score
GACGGAGTGGGTATCGGGACGTGCTAG	0.391 z-score
TCACATCTCACTCTAATACTGTGCTAG	0.388 z-score
TCAATTCTCAACCCTGGTACTGTGCTA	0.284 z-score
GACGATGTCGGGTATCGAGACGTGCTA	0.659 z-score
TGAGAACTGGGGTATCGATTAGTGCTA	2.05 z-score
GACGAACTGAGACTGGAGTCGTGCTAG	-0.446 z-score
TAAAACATCATTTTTCCCTCGTGCTAG	0.823 z-score

Sample 2 — method: universal PBM; form: double-stranded DNA, one strand shown; medium: in vitro; tested at: not given; direction: higher = stronger binding
Target: Sal-like protein 4, full length isoform B (SALL4, Homo sapiens, UniProt Q9UJQ4-2, residues 1-616)
Setting: 8-mer, flanks averaged, mean of replicates
Sequence	E-score
GTGACCAC	-0.285
CGGCTGGC	-0.342
CAGCCCCC	-0.285
ATGTTGCC	0.0283
ACACATGT	0.141
CCAATAAG	0.0804
GGCCACAA	-0.252
ATTAATAA	0.471
GTGTGCAA	0.00841
GAGCACCA	-0.0631
CTGCGCCC	-0.393
AATGCGTA	0.213
CGCCTTCA	-0.0945
ATCAGGAC	-0.137
CTTGGATC	-0.149
CCCCCGAC	-0.0697
CATTCGAC	0.04
GCACAGAC	-0.00814

Sample 3 — target: human cyclin A2; read-out: peptide binding; method: competitive growth sequencing; form: peptide; organism: Saccharomyces cerevisiae; strain: cyclin A2-Cln2 fusion strain; tested at: concentration not given; reference: unfused Cln2 strain; direction: direction not given
Sequence	binding score
MDASRQLMLNEEQ	-0.251
REPARRLFLFGEE	1.09
APPRKALFTYPKG	1.36

Sample 4 — method: RNA Bind-n-Seq; form: RNA; medium: in vitro; tested at: 1 µM; setting: whole 134-nt RNA, ends assumed; added: 150 mM KCl; reference: input library; direction: higher = stronger binding
Target: Ras GTPase-activating protein-binding protein 1, C-terminal RGG region (G3BP1, Homo sapiens, UniProt Q13283)
Sequence of UniProt Q13283 (whole entry, looked up): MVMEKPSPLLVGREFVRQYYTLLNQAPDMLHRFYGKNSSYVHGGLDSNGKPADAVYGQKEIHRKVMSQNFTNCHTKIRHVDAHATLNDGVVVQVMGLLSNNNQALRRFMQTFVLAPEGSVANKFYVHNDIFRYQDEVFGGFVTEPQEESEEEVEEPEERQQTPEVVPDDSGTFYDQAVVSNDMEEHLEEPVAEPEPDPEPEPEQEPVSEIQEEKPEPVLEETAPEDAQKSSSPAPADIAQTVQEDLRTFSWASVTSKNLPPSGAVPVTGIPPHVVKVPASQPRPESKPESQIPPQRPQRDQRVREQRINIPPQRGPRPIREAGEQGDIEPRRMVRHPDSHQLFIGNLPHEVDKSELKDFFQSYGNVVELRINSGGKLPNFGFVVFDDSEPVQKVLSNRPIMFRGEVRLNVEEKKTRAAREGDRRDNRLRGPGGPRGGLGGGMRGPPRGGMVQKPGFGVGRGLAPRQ
All sequences stand within: GGGAGUUCUACAGUCCGACGAUC … UGGAAUUCUCGGGUGUCAAGG
Sequence	log2 enrichment
CAAGUCCUGUGCUACACAUCGUAUGUACCGAAUCGGGAAAGGGUUUGGGAAAGGGAAAGUAUUAUGUUACGCCGUUCGGAUCUGCACUUC	1.66
AGUCCUGUGCUACACAUCGUAUGUACCGAAUCGGCCCCCGGGGCCCCCGGCCCCCGGGAAAGUAUUAUGUUACGCCGUUCGGAUCUGCAC	-1.92
UGGGAGGUGGAUUUUGUUUAUUUUUUUAGCUCAUUUCCAGGGGUGGGAAUUUUUUUUUAAUAUGUGUCAUGAAUAAAGUUUUUUUUGAAA	3.52
CAAGUCCUGUGCUACACAUCGUAUGUACCGAAUCGGUUUGGAAAAAAAGGAAAGGAAAGUAUUAUGUUACGCCGUUCGGAUCUGCACUUC	-1.82
AGUCCUGUGCUACACAUCGUAUGUACCGAAUCGGGGUUUUUUUGGGGAGGGGAGGGGAAAGUAUUAUGUUACGCCGUUCGGAUCUGCACU	2.46
GCAGGAAGUAAAAACAAAUGGGAAUGCUUCGGAUAGUGGCAGGGGUGGGGGUUGCUAAGGAAAGGGUGGGAUGGGAGUGGGUAAAGAGUU	2.31
CACAGACAACACGCACCCACACAGACACAGAGGGAAGGGGUUGGGAUGGGGACAGGGUGCACAGCAGGGAAAGGUAGGACCCCAGCCCCU	-0.156
UAACUUUAGAGGAGGAUCUGAUGGAUAUGGCAGUGGACGUGGAUUUGGGGAUGGCUAUAAUGGGUAUGGAGGAGGACGUGGAGGUGGCAA	-0.648
GUCCUGUGCUACACAUCGUAUGUACCGAAUCGGCCCCCGGGGCCCCCGGCCCCCGGGGAAAGUAUUAUGUUACGCCGUUCGGAUCUGCAC	-1.41
UCCUGUGCUACACAUCGUAUGUACCGAAUCGGGAAAAAAGGGAAAAAAGGAAAAAAGGGGAAAGUAUUAUGUUACGCCGUUCGGAUCUGC	-1.41
UCCUGUGCUACACAUCGUAUGUACCGAAUCAAAUUUUUAAAUUUUUAAACCCCCCCAAAAAAGUAUUAUGUUACGCCGUUCGGAUCUGCA	-0.575
ACCAUGCAGGUGGGCAUCUUUGGAAAGUGGGGCAAGGGGGGGAUAGGGAGGGGGGUAACACUUUGGGAACAGGUGGUCCCAGGUCGUUUC	-1.09
UCAAGUCCUGUGCUACACAUCGUAUGUACCGAAUCGGUUUGGGGUUUGGUUUGGAAAGUAUUAUGUUACGCCGUUCGGAUCUGCACUUCC	-0.873
UGUGUGACUUCCUUGGAGAGAAGAUUGCAUCUGUUUUGGGUAUCAGCACCCCAAAGUACCAAUAUGCCAUUGAUGAAUAUUAUCGGAUGA	-0.717

Sample 5 — method: protein binding microarray; form: double-stranded DNA, one strand shown; medium: in vitro; tested at: not given; reference: not given; direction: higher = stronger binding
Target: Histone acetyltransferase KAT6A, both winged helices, GST fusion (KAT6A, Homo sapiens, UniProt Q92794, residues 1-181)
Setting: 8-mer, flanks averaged, mean of 2 arrays, mostly near background
Residues (chain): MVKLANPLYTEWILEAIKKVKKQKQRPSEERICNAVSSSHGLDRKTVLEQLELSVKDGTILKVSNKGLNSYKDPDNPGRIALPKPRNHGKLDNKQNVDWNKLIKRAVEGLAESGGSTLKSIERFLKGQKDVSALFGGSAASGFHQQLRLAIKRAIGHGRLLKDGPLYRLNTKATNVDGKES
Sequence	E-score
GGAAACAA	-0.0512
AACTAATC	-0.0617
ATCCCCGG	0.0561
GGTTTCAC	-0.007
ATTAGGCA	-0.1
CAATTGCA	-0.0833
AGCGGCAA	0.284
CAGGACCG	0.0416
GGCATCTA	-0.129
CGAGGGCG	0.182
AAGAAGAT	0.0511
GCTTAAAA	-0.00999
CTCTGTAC	-0.0945
GCTGTCGA	-0.0209
ACTTTCTG	-0.0678
AGAGCCGC	0.228
CTTGAGGA	-0.162
AAAATCCT	-0.139
CGTCCTGA	-0.137
GCGTTGAA	0.254
CATCTACG	0.126
AGACATGC	0.0272
GATCTGTA	-0.0869
ACCGCTTG	0.162
CAGGTTCC	-0.0612

Sample 6 — method: RNA Bind-n-Seq; form: RNA; medium: in vitro; tested at: 365 nM; reference: no-protein control; direction: higher = stronger binding
Target: RNA binding protein fox-1 homolog 2, RRM domain, GST-SBP tag (RBFOX2, Homo sapiens, UniProt O43251-10, residues 100-194)
Setting: natural RNA segment, single round, ends assumed
All sequences stand within: GGGAGUUCUACAGUCCGACGAUC … UGGAAUUCUCGGGUGCCAA
Target sequence (chain): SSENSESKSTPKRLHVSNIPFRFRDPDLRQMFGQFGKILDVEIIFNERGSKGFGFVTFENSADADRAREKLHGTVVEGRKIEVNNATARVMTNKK
Sequence	RBNS enrichment (R)
GAAGAGCAGUUUGUCCACUCUGGGUGCUGCUGAGGGAGCUGUUUGGGAAGAAGCCAUCCCUGGCCAUAGCCCCCAGGAUACAGCCAGCCCCUGUAGCUGCAAGUAGCAGG	0.484
CACAACCUUAUGUGUACAUGACCUGAACAUAGGAUCUGUUCUAUACAUACUGGAAUAUGUUUUAACAUAUGCCCCACCAUCCUGACUCACACGGAAGCACGGGUCUCUUC	0.271
CGAGGCAGGCCUGCAGGGCCUGGGCUACACCAUCCUGCCAGUGUCUCCCUCUCAGUGUCUCCCUCUUGGAUCUGUAGAUCUUCCCUUUGUGUCCUGGCCAGCCCCCAAAU	0.703
AAUGAAAAUAUUCUAGUUAUUAAACUCUUGGUCUAGAAAUACUUCUGUCUGUAAACUUUGACAUCCAACCUGGAAAUCUAUUUGGUCAUGGUUAAAACAUUAUUCUCCUA	0.389
UUGGUGGGAAUGGAACUGGGCCGAUGUCCUUCAUUCAGCCUGUGCCUUUCUUGGGGUUUCUUUUCUGUUUUUCUUUCCGGAAGAGAAGGGCCUGAGAAAGGGCCAUGCCA	1.24
CGUUUGUAAACUGCUUGAAGUCUGUGGCAUUCAGGCACACGUCUGGCUGGCCGGCUGGGUCUCCUCCCGGGCUCAGUGGGCCUGGGGCCUCUCUGACGUGGUGCCUGCUG	0.931
GUGAGAUGGGUGUCUGGGAGUGGUGCCAUGGAAGUGGCGAUUCUGCUUCUUAUAAAUACCUCCAAAGUGCCACCUGUUUCAACAGAAACGCUCAGAUUGCUAGCUAGGCA	0.525
ACUCUUCCGUUUCUUCUAACCUGCUGUUUCUGUUCUGACAGCGGCUCCUUUGUAAGCUUCAGGCCACACCCACCCCCUCAGUCCAUAUCUGCACUUGCUCAUAGGCCGGU	0.39
GUCACCCAGAGUAGCGGCUGCCCUGGUAGCCGAGAGCAGGCAAGGCUCUAAGAGCACUGUGCUUGGGAAAGUUGUGAUUAACAGCUUUUAAGAGGGCCCCUACCCCCAGU	0.254
AGAAAGUGCUCAUUUAUAAUGUGUAUUCUGUGCAGCUGUUCUCAGACAAGACCGGAUCUUGUCAUCUUACCUUUUGCUUUACAAAAAAGGCCUGUUGAAGUCAAUGCUGU	0.292
CUCUCUUGGGGACUCUCAAGAGCCUGUGUUCAUCUAGAAGUAGUAGUUUGAUUCUGGUUUCCCUCCUACAGUGUGUCCUCCGUCUCUGUGCAGCUCCGUCAUUACCAUAG	0.54
GUGCCUUUUGCCUUCCACCAUGAUUGUGAGGCCUCCCAGCCACAUGGAACUGUGAGUUCAUUAAACCUCUUUUUCUUCAUAAAUUACCCAGUCUCGGGUAUGUCUUUAUC	0.42

Some of these lines once more (sample 4):
Sequence	log2 enrichment
ACCAUGCAGGUGGGCAUCUUUGGAAAGUGGGGCAAGGGGGGGAUAGGGAGGGGGGUAACACUUUGGGAACAGGUGGUCCCAGGUCGUUUC	-1.09
AGUCCUGUGCUACACAUCGUAUGUACCGAAUCGGGGUUUUUUUGGGGAGGGGAGGGGAAAGUAUUAUGUUACGCCGUUCGGAUCUGCACU	2.46
CAAGUCCUGUGCUACACAUCGUAUGUACCGAAUCGGGAAAGGGUUUGGGAAAGGGAAAGUAUUAUGUUACGCCGUUCGGAUCUGCACUUC	1.66
GUCCUGUGCUACACAUCGUAUGUACCGAAUCGGCCCCCGGGGCCCCCGGCCCCCGGGGAAAGUAUUAUGUUACGCCGUUCGGAUCUGCAC	-1.41
GCAGGAAGUAAAAACAAAUGGGAAUGCUUCGGAUAGUGGCAGGGGUGGGGGUUGCUAAGGAAAGGGUGGGAUGGGAGUGGGUAAAGAGUU	2.31
UAACUUUAGAGGAGGAUCUGAUGGAUAUGGCAGUGGACGUGGAUUUGGGGAUGGCUAUAAUGGGUAUGGAGGAGGACGUGGAGGUGGCAA	-0.648
UCAAGUCCUGUGCUACACAUCGUAUGUACCGAAUCGGUUUGGGGUUUGGUUUGGAAAGUAUUAUGUUACGCCGUUCGGAUCUGCACUUCC	-0.873
UGUGUGACUUCCUUGGAGAGAAGAUUGCAUCUGUUUUGGGUAUCAGCACCCCAAAGUACCAAUAUGCCAUUGAUGAAUAUUAUCGGAUGA	-0.717
AGUCCUGUGCUACACAUCGUAUGUACCGAAUCGGCCCCCGGGGCCCCCGGCCCCCGGGAAAGUAUUAUGUUACGCCGUUCGGAUCUGCAC	-1.92
UCCUGUGCUACACAUCGUAUGUACCGAAUCGGGAAAAAAGGGAAAAAAGGAAAAAAGGGGAAAGUAUUAUGUUACGCCGUUCGGAUCUGC	-1.41
CACAGACAACACGCACCCACACAGACACAGAGGGAAGGGGUUGGGAUGGGGACAGGGUGCACAGCAGGGAAAGGUAGGACCCCAGCCCCU	-0.156
UGGGAGGUGGAUUUUGUUUAUUUUUUUAGCUCAUUUCCAGGGGUGGGAAUUUUUUUUUAAUAUGUGUCAUGAAUAAAGUUUUUUUUGAAA	3.52
